Results from different studies.
Compare with care: the assays were run in different laboratories.

SMILES	assay	test system	setting	ED50
COC(=O)[C@H]1[C@@H](c2ccc(Cl)c(C)c2)C[C@@H]2CC[C@H]1N2	nicotine-induced hypothermia, antagonist	mice	with: nicotine 2.5 mg/kg sc	0.14 to 7.4 mg/kg
CC(C)NCCc1c[nH]c2cccc(O)c12.O=C(O)/C=C/C(=O)O	head twitch response	C57BL/6J mice	subcutaneous, 30 min session	2.9 to 3.3 mg/kg
CC[C@H](C)[C@H](NC(=O)[C@H](CCCNC(=N)N)NC(=O)[C@H](Cc1ccc(O)cc1)NC(=O)[C@H](Cc1ccc(O)cc1)NC(=O)[C@H](CCCNC(=N)N)NC(C)=O)C(=O)N[C@@H](CCCCN)C(N)=O	mechanical allodynia, von Frey	CCI neuropathic mice	intrathecal, 30 min	0.008 nmol
COC(=O)[C@H]1[C@@H](c2ccc(Cl)c(C)c2)C[C@@H]2CC[C@H]1N2C	nicotine-induced hypothermia, antagonist	mice	with: nicotine 2.5 mg/kg sc	0.14 to 7.4 mg/kg
C=CCN1CC[C@]23c4c5ccc(O)c4O[C@H]2[C@H](NC(=O)CCCCC)CC[C@@]3(O)[C@H]1C5	tail flick analgesia, radiant heat tail flick	CD-1 mice	subcutaneous	> 10 mg/kg
CCCCCn1cc(C(=O)c2ccc(CC)c3ccccc23)c2ccccc21	locomotor depression	male ND4 Swiss-Webster mice	intraperitoneal	0.78 mg/kg
CCCCCc1cc(O)c2c(c1)OC(C)(C)[C@@H]1CCC(C)=C[C@@H]21	drug discrimination	C57BL/6J mice, male	intraperitoneal, 30 min pretreatment	2.15 mg/kg
C=CCN1CC[C@]23c4c5ccc(O)c4O[C@H]2[C@H](NC(=O)CCCCCCCCCCC)CC[C@@]3(O)[C@H]1C5	tail flick analgesia, radiant heat tail flick	CD-1 mice	subcutaneous	> 10 mg/kg
Cc1cccc([C@]2(O)OCC(C)(C)N[C@H]2C)c1	nicotine antinociception, antagonist, tail-flick test	mice	15 min pretreatment, with: nicotine 2.5 mg/kg sc	0.034 to 0.054 mg/kg
O=C(c1cccc2ccccc12)c1nn(CCCCCF)c2ccccc12	locomotor depression	male ND4 Swiss-Webster mice	intraperitoneal	0.53 mg/kg
CCCCNCCc1c[nH]c2cccc(O)c12.O=C(O)/C=C/C(=O)O	head twitch response	C57BL/6J mice	subcutaneous, 30 min session	> 30 mg/kg
CCCCCn1cc(C(=O)c2ccc(OC)cc2)c2ccccc21	locomotor depression	male ND4 Swiss-Webster mice	intraperitoneal	5.54 mg/kg
CCNCCc1c[nH]c2cccc(O)c12.CCNCCc1c[nH]c2cccc(O)c12.O=C(O)CCC(=O)O	head twitch response	C57BL/6J mice	subcutaneous, 30 min session	1.4 mg/kg

Excerpt of the above:
SMILES	assay	test system	setting	ED50
CCCCCn1cc(C(=O)c2ccc(OC)cc2)c2ccccc21	locomotor depression	male ND4 Swiss-Webster mice	intraperitoneal	5.54 mg/kg
CC[C@H](C)[C@H](NC(=O)[C@H](CCCNC(=N)N)NC(=O)[C@H](Cc1ccc(O)cc1)NC(=O)[C@H](Cc1ccc(O)cc1)NC(=O)[C@H](CCCNC(=N)N)NC(C)=O)C(=O)N[C@@H](CCCCN)C(N)=O	mechanical allodynia, von Frey	CCI neuropathic mice	intrathecal, 30 min	0.008 nmol
